Published values from different studies.
Numbered parts are unrelated; each lists some results of a single study. Values joined by “and” are separate records of one study, mostly repeats; a detail may differ.
Sequence of UniProt P10721 (whole entry, unmodified, looked up): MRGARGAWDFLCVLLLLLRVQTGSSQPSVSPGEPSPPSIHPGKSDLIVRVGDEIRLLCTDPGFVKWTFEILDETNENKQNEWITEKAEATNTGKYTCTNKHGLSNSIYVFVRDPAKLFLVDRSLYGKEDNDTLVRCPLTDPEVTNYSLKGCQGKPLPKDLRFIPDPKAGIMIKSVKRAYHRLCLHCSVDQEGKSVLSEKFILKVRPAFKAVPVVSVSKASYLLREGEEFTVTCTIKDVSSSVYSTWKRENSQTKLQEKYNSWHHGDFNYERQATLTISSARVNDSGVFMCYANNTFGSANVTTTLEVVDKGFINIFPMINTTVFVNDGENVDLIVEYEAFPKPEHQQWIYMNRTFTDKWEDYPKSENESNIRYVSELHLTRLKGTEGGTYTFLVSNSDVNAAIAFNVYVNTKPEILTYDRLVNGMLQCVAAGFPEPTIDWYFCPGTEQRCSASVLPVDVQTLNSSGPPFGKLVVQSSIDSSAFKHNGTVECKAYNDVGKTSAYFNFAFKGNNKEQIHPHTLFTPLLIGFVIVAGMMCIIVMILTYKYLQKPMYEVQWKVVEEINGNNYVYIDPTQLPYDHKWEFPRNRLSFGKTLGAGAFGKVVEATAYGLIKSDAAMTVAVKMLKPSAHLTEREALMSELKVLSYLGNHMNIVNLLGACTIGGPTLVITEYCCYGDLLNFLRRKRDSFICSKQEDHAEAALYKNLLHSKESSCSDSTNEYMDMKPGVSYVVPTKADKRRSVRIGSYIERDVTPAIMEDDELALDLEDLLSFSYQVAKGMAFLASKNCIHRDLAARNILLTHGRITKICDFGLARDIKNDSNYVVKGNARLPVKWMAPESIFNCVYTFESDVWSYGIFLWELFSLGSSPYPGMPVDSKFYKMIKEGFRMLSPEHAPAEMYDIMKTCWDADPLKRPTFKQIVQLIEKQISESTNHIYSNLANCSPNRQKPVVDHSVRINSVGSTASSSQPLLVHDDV
Sequence of UniProt Q05513 (whole entry, looked up): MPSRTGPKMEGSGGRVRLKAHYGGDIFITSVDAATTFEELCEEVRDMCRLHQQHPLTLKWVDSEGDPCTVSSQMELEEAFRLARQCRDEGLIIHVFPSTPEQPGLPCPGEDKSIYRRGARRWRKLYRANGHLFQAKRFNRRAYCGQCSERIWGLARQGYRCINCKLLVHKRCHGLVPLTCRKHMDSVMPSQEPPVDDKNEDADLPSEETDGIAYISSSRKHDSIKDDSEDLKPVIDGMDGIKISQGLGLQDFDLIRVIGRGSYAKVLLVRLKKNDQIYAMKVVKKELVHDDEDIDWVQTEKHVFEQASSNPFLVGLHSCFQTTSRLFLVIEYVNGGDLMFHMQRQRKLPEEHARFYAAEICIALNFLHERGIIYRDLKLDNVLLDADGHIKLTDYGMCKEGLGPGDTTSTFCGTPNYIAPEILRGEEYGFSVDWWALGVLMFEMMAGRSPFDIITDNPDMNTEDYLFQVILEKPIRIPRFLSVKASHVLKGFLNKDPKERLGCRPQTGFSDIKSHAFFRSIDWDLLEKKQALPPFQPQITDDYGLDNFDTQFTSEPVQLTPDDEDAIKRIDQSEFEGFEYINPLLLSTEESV
Sequence of UniProt P42336 (whole entry, unmodified, looked up): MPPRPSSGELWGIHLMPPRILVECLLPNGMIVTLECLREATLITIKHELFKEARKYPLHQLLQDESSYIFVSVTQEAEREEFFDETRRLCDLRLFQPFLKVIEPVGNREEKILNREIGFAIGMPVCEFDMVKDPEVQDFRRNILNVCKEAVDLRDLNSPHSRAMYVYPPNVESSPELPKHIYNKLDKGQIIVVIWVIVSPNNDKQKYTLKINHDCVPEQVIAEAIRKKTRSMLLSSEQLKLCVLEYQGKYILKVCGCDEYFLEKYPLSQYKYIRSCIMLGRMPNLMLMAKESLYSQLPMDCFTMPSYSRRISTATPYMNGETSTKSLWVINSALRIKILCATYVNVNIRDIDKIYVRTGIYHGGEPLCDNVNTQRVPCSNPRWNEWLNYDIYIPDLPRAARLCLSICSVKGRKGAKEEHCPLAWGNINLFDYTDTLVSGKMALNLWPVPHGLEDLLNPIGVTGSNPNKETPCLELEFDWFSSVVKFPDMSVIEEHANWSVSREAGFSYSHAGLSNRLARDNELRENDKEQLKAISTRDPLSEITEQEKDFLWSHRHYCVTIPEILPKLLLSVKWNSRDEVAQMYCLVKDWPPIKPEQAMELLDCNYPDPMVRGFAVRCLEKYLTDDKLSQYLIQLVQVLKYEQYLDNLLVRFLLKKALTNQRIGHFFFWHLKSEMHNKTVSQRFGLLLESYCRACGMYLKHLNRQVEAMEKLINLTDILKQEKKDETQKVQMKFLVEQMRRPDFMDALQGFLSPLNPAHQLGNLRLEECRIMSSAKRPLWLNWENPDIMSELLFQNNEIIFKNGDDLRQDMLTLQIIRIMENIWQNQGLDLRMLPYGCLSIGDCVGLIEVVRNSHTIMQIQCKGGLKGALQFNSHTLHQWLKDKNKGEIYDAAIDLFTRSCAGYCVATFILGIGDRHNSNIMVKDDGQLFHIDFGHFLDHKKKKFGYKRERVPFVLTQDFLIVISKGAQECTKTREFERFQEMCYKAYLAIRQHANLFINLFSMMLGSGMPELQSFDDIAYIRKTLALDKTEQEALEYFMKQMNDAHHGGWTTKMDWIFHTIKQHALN
Sequence of UniProt P00519 (whole entry, looked up): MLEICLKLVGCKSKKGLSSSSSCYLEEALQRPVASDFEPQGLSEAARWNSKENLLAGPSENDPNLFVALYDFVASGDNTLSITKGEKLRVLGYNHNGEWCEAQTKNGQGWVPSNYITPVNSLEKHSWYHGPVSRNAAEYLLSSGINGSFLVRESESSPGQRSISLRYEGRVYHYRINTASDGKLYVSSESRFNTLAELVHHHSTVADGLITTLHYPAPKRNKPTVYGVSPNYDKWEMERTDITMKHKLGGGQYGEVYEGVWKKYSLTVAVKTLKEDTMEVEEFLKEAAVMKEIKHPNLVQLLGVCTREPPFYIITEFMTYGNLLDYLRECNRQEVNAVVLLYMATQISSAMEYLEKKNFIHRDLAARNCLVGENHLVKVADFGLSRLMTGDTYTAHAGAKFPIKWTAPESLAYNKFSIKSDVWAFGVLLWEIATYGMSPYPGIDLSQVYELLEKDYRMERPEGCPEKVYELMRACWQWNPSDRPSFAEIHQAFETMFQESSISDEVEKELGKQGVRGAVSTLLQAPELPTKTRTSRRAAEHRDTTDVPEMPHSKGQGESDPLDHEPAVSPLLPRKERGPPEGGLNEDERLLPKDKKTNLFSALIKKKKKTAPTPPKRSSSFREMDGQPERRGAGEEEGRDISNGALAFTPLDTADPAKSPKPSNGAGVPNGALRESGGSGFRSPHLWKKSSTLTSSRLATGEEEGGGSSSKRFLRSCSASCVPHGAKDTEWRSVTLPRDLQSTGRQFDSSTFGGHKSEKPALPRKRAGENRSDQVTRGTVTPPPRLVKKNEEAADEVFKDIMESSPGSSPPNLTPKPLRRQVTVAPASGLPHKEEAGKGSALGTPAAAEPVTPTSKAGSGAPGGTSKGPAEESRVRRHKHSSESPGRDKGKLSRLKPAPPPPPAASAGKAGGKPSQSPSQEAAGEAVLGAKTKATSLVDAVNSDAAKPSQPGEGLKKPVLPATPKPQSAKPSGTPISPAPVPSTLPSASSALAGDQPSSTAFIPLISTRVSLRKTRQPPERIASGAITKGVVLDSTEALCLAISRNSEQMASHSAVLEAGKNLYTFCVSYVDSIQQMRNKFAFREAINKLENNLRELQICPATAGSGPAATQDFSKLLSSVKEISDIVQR
Sequence of UniProt Q9NYL2 (whole entry, looked up): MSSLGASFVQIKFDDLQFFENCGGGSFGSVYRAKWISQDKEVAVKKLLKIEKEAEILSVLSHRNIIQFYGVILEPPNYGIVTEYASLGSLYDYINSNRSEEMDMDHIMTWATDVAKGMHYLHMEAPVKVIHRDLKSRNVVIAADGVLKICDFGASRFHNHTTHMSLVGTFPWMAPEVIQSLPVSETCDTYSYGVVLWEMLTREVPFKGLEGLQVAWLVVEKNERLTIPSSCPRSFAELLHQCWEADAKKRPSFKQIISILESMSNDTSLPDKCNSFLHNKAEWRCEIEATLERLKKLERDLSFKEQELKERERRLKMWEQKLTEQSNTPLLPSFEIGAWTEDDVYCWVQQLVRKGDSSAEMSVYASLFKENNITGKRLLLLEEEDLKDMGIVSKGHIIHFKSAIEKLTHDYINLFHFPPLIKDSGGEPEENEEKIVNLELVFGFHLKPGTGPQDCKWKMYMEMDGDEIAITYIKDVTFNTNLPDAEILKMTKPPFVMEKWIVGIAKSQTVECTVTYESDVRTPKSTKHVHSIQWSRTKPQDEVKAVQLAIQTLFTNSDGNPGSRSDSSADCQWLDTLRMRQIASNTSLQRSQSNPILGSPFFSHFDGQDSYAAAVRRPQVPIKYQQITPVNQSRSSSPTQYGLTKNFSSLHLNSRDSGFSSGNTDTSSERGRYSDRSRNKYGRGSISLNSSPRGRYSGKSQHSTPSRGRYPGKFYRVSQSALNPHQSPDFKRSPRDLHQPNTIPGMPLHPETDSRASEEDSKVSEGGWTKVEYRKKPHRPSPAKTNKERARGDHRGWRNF
Sequence of UniProt Q9H3Y6 (whole entry, looked up): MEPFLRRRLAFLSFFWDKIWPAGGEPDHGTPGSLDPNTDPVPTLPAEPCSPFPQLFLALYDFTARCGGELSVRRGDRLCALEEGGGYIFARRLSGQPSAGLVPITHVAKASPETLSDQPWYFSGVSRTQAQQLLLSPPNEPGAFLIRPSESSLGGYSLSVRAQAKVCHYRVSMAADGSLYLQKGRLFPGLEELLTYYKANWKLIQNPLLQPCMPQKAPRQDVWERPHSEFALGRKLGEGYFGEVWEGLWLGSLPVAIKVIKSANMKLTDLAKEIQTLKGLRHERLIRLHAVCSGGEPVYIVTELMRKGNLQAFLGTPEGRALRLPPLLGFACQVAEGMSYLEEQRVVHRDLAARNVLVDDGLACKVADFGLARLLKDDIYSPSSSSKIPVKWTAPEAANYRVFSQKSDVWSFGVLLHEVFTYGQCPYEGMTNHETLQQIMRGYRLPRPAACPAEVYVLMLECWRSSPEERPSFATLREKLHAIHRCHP

Series 1 — SMILES: O=C1c2ccccc2-c2n[nH]c3cccc1c23; effect on: enzyme activity; mode: inhibitor; concentration: 0.5 µM; baseline: control
The remaining activity was 96.8% (Calcium/calmodulin-dependent protein kinase type 1 (CAMK1, Homo sapiens, UniProt Q14012)).
The remaining activity was 84.3% (Calcium/calmodulin-dependent protein kinase kinase 1 (CAMKK1, Homo sapiens, UniProt Q8N5S9)).
The remaining activity was 87.2% (Tyrosine-protein kinase JAK1 (JAK1, Homo sapiens, UniProt P23458)).
Insulin-like growth factor 1 receptor (IGF1R, Homo sapiens, UniProt P08069) — remaining activity: 94.9%.
The remaining activity was 89% (Ephrin type-A receptor 2 (EPHA2, Homo sapiens, UniProt P29317)).
It gave 85.1% for remaining activity (Serine/threonine-protein kinase Sgk2 (SGK2, Homo sapiens, UniProt Q9HBY8)).
The remaining activity was 75.5% (Mitogen-activated protein kinase kinase kinase 20 (MAP3K20, Homo sapiens, UniProt Q9NYL2)).
For Serine/threonine-protein kinase PAK 1 (PAK1, Homo sapiens, UniProt Q13153): remaining activity read 94.8%.
For SRSF protein kinase 1 (SRPK1, Homo sapiens, UniProt Q96SB4): remaining activity read 94.3%.
The remaining activity was 98.3% (Protein kinase C zeta type (PRKCZ, Homo sapiens, UniProt Q05513)).
For Cyclin-dependent kinase 2, with cyclin E (CDK2, Homo sapiens, UniProt P24941): remaining activity read 79.5%.

Series 2 — effect on: cell-free assay; method: competition with immobilised ligand; concentration: 1 µM
SMILES: CN(c1ccnc(CNc2nc(Nc3ccc4c(c3)CC(=O)N4)ncc2C(F)(F)F)n1)S(C)(=O)=O
The remaining binding was 77% (TRAF2 and NCK-interacting protein kinase (TNIK, Homo sapiens, UniProt Q9UKE5)).
It gave 45% for remaining binding (Homeodomain-interacting protein kinase 1 (HIPK1, Homo sapiens, UniProt Q86Z02)).
The remaining binding was 19% (Dual specificity tyrosine-phosphorylation-regulated kinase 1A (DYRK1A, Homo sapiens, UniProt Q13627)).
Receptor-interacting serine/threonine-protein kinase 1 (RIPK1, Homo sapiens, UniProt Q13546) — remaining binding: 100%.
Mast/stem cell growth factor receptor Kit (KIT, Homo sapiens, UniProt P10721) — remaining binding: 85%.
For Receptor tyrosine-protein kinase erbB-3 (ERBB3, Homo sapiens, UniProt P21860): remaining binding read 78%.
It gave 62% for remaining binding (Tyrosine-protein kinase Srms (SRMS, Homo sapiens, UniProt Q9H3Y6)).
For Myosin light chain kinase, smooth muscle (MYLK, Homo sapiens, UniProt Q15746): remaining binding read 71%.
It gave 85% for remaining binding (Phosphatidylinositol 4,5-bisphosphate 3-kinase catalytic subunit alpha isoform (PIK3CA, Homo sapiens, UniProt P42336, H1047Y)).
Mast/stem cell growth factor receptor Kit (KIT, Homo sapiens, UniProt P10721, A829P) — remaining binding: 46%.
The remaining binding was 83% (Serine/threonine-protein kinase PAK 2 (PAK2, Homo sapiens, UniProt Q13177)).
It gave 67% for remaining binding (Mast/stem cell growth factor receptor Kit (KIT, Homo sapiens, UniProt P10721, V559D/V654A)).
The remaining binding was 77% (Tyrosine-protein kinase ABL1, non-phosphorylated (ABL1, Homo sapiens, UniProt P00519)).

Other studies, line by line
`CCC[C@H]1NC(=O)CSC[C@@H](C(=O)OCC)N(C)C(=O)[C@H](CC(C)C)NC(=O)[C@H](C)N(C)C(=O)[C@H](CC(C)C)NC(=O)[C@H](C)N(C)C(=O)[C@H]2CCCN2C(=O)[C@H](CC(C)C)NC(=O)CN(C)C1=O` gave a logD of 0.647 (hydrocarbon/water).
For `COCc1cc(C(=O)Nc2cc([C@H]3CC[C@@H](OC(=O)NC(C)C)C3)[nH]n2)n(C)n1`, the cell count was 0.475 and 0.455 and 0.391 (NCI-H1048; Vi-Cell; 250 nM, 6 d; baseline: DMSO).

Some of these lines once more (series 2):
The remaining binding was 19% (Dual specificity tyrosine-phosphorylation-regulated kinase 1A (DYRK1A, Homo sapiens, UniProt Q13627)).
It gave 67% for remaining binding (Mast/stem cell growth factor receptor Kit (KIT, Homo sapiens, UniProt P10721, V559D/V654A)).
For Myosin light chain kinase, smooth muscle (MYLK, Homo sapiens, UniProt Q15746): remaining binding read 71%.
The remaining binding was 77% (Tyrosine-protein kinase ABL1, non-phosphorylated (ABL1, Homo sapiens, UniProt P00519)).
